Assay results of several laboratories.
Parts stem from different laboratories: compare values within a part only.

Study 1 — technique: protein-binding microarray; form: double-stranded DNA, one strand shown; matrix: in vitro; tested at: 2200 nM top; setting: 60-bp whole probe; with: salmon DNA 0.4 mg/ml; baseline: random background probes; reading: higher = stronger binding; quantity: fitted relative affinity; constant ends, left off below: GCCTAGCAC … GTCTTGATTCGCTTGACGCTGCTG
Target: Interferon regulatory factor 7, full length, phosphomimetic (IRF7, Homo sapiens, UniProt Q92985, residues 1-503, S471D/S472D/S475D/S476D/S477D/S483D/S484D/S487D)
Chain of UniProt Q92985 (whole entry, unmodified, looked up): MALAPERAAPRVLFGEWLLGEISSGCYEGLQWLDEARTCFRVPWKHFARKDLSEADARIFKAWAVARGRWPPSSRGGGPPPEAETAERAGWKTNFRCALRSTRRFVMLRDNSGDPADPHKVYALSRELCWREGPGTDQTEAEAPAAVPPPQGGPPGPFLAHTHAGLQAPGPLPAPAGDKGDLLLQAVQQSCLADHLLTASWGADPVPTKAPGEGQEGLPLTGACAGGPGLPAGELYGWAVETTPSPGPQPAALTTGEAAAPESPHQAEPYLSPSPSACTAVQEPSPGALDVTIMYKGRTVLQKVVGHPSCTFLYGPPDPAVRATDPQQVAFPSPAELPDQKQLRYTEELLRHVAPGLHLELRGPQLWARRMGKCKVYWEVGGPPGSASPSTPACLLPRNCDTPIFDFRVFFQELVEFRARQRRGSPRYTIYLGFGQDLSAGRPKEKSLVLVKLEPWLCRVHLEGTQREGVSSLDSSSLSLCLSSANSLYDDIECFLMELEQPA
GACGGTTTCAACACTGGGGACGTGCTA: 0.793 z-score
GACGATATCGGCTTTCGAGACGTGCTA: 1.47 z-score
TTAGGGCTGGGTCTCGGTTAGTGCTAG: -0.756 z-score
AGGGCGGCTGAGTCAGCACAGTGCTAG: -1.26 z-score
GATTTCTTCCCTGTGAAAACGTGCTAG: 1.66 z-score
TTAGCTTCCGGTTTCGGTTAGTGCTAG: 8.22 z-score

Study 2 — technique: protein binding microarray; form: double-stranded DNA, one strand shown; matrix: in vitro; tested at: not given; baseline: not given; reading: higher = stronger binding; quantity: E-score
Target: Histone acetyltransferase KAT6A, winged helix 1, GST fusion (KAT6A, Homo sapiens, UniProt Q92794, residues 1-85)
Setting: 8-mer, flanks averaged, mean of 2 arrays, mostly near background
Target sequence (chain): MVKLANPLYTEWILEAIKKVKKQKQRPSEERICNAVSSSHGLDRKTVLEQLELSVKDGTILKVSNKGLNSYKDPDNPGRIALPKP
AGTTGAAG: -0.256
CGTAGGAA: 0.0477
CGCTCAAA: 0.114
TAATACTA: -0.138
AATCGACT: -0.195
AGGTTCTA: -0.155
ACGACCCA: -0.32
GCTTCACC: -0.00338
TATTCCGA: 0.0192
ACTCGCGG: 0.311

Study 3 — technique: RNA Bind-n-Seq; form: RNA; matrix: in vitro; tested at: 200 nM; setting: whole 134-nt RNA, ends assumed; with: 150 mM LiCl; baseline: input library; reading: higher = stronger binding; quantity: log2 enrichment; all molecules: 7-deaza-guanosine replaces G
Target: Ras GTPase-activating protein-binding protein 1, full length (G3BP1, Homo sapiens, UniProt Q13283)
Chain of UniProt Q13283 (whole entry, looked up): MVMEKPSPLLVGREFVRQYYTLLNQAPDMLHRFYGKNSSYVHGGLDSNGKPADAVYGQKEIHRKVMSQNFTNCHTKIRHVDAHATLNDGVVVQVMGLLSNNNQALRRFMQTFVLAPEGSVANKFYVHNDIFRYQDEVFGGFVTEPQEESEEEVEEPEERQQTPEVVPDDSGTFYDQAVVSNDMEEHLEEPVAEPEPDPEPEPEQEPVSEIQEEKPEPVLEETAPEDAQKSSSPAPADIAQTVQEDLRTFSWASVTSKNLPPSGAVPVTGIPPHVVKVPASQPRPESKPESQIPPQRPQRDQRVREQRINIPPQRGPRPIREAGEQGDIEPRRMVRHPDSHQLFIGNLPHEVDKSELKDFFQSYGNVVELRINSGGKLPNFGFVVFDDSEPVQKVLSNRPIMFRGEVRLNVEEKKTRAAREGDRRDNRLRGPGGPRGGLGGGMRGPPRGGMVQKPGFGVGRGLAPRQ
Constant ends, left off below: GGGAGUUCUACAGUCCGACGAUC … UGGAAUUCUCGGGUGUCAAGG
UCAAGUCCUGUGCUACACAUCGUAUGUACCGAAUCGGGGAGGGGAGGGGAGGGGAAAGUAUUAUGUUACGCCGUUCGGAUCUGCACUUCC: 0.453
UGGGAGGUGGAUUUUGUUUAUUUUUUUAGCUCAUUUCCAGGGGUGGUAAUUUUUUUUUAAUAUGUGUCAUGAAUAAAGUUGUUUUUGAAA: -0.284
ACCAUGCAGGUGGGCAUCUUUGGGAAGUGGGGCAAGGGGGGGAUAGGGAGGGGGGUAACACUUCGGGAACAGGUGGUCCCAGGUCGUUUC: 0.222
AAGUCCUGUGCUACACAUCGUAUGUACCGAAUCGGGGUGGGGAAAAAGGGGAGGGGAAAGUAUUAUGUUACGCCGUUCGGAUCUGCACUU: 0.497
AGUCCUGUGCUACACAUCGUAUGUACCGAAUCGGGAAAAAGGGAAAAAGGGAAAAAGGAAAGUAUUAUGUUACGCCGUUCGGAUCUGCAC: -0.349

Mixed results
PhoQ, residues 284 288 289 292 302 303 SSTLSG — fold induction (PhoP, residues 12 14 15 18 19 GHCSL (Escherichia coli, UniProt P23836); Sort-seq, item: YFP reporter; E. coli; PhoQ-PhoP variant library, with: 10 µM Mg2+; baseline: high Mg2+ state, higher = stronger signaling): 4.24

Repeated from above (study 2):
GCTTCACC: -0.00338
TATTCCGA: 0.0192
